Measured values from different studies.
Protocols differ between the studies behind these lines. Several values in a cell are separate wells, animals, samples, runs or records.
Target: Serine/threonine-protein kinase 16 (STK16, Homo sapiens, UniProt O75716)

C=CC(=O)Nc1cccc(-c2cnc3[nH]cc(C(=O)NC(C)(C)C)c3n2)c1
inhibition (kinase activity; 0.1 µM): -1% and 5%

COc1c(Cl)cccc1Nc1c(-c2ccncc2C#C[C@@]2(C)CCCN2C(=O)/C=C/CN(C)C)[nH]c2c1C(=O)NCC2
remaining binding (binding, competition with immobilised ligand; 3 µM): 84%

CNC1C[S+]2CC[S+]3CC[S+](C1)[Ru-4]321([N]=C=S)[n]2c3ccc(OC)cc3c3c4c(c5cc(F)c[n+]1c5c32)C(=O)NC4=O (centres unmarked)
remaining binding (KinomeScan; 0.1 µM; reference: untreated): 84%

C=CC(=O)N1CCc2ccc(-n3c(=O)ccc4cnc5ccc(-c6cnn(C)c6)cc5c43)cc21
remaining binding (KINOMEscan; 1 µM; reference: DMSO control): 97%

C=CC(=O)Nc1cc(-c2nn(C3CCN(CCNC(=O)[C@H](C)CCC45CC6CC(CC(C6)C4)C5)CC3)c3ncnc(N)c23)ccc1Oc1ccccc1
inhibition (inhibitor, KiNativ profiling; biochemical; 2 µM): 34.1%

COCC12C(=O)NC3C4(C(OC)CC1O)C1CC5(O)C(OC)C(O)C(OC(C)=O)(C1C5OC(=O)c1ccccc1)C3(O)C(OC)C24 (centres unmarked)
remaining activity (kinase activity, inhibitor, ProQinase kinase profiling; 25 µM; reference: control): 91% and 98%

Cc1cnc2nc1Nc1cccc(c1)COC/C=C/COCc1cc(ccc1OCCN1CCOCC1)N2
remaining binding (binding, competition with immobilised ligand; 0.1 µM): 16%

COc1cc(Nc2nc(C)cc(-c3cnn4nc(OC)ccc34)n2)cc(C(F)(F)F)c1
remaining binding (binding, competition with immobilised ligand; 1 µM): 81%

Cc1cccc(O[C@H]2CCC[C@@H](C(C)CNCc3ccncc3)C2)c1 (relative stereo)
inhibition (enzyme activity, inhibitor; 1 µM): 0%

Cc1ccc(C(=O)Nc2ccc(CN3CCN(C)CC3)c(C(F)(F)F)c2)cc1C#Cc1cnc2cccnn12
upper asymptote (target engagement, NanoBRET; human cells): 1.9

C[C@]1(O)CCCN(c2nc(Nc3ccc(S(=O)(=O)N[C@H]4CC[C@H](CN5CCN(c6ccc(C7CCC(=O)NC7=O)cc6F)CC5)CC4)cc3)ncc2C(F)(F)F)C1 (some centres unmarked)
remaining binding (binding, competition with immobilised ligand; 1 µM): 8.3%

CN1CC[C@@H](COc2cnc(C#N)cc2-c2ccn3nc(NC(=O)C4CC4)cc3c2)C1
inhibition (enzyme activity, inhibitor; 1 µM): 0%

NC(=O)C[C@H]1CCc2sc3ncnc(O[C@H]4CC[C@H](N5CCOCC5)CC4)c3c21
inhibition (enzyme activity, inhibitor; 10 µM): 4%

CC(C)=CC1OC(C)(C)C2C=C3C(=O)C(Cl)=CC(O)C3C3C(O)C4OC4C(=O)C132 (centres unmarked)
remaining binding (cell-free assay, competition with immobilised ligand; 10 µM): 95%

A few entries again:
COc1cc(Nc2nc(C)cc(-c3cnn4nc(OC)ccc34)n2)cc(C(F)(F)F)c1
remaining binding (binding, competition with immobilised ligand; 1 µM): 81%
